Measurements gathered from unrelated publications.
Compare with care: the assays were run in different laboratories. ± gives the spread as reported.

CC(C)C[C@H](NC(=O)[C@H](Cc1ccc(O)cc1)NC(=O)[C@@H](CCCNC(=N)N)NC(=O)[C@@H](CO)NC(=O)[C@H](Cc1ccccc1)NC(=O)[C@H](CC1CCCCC1)NC(=O)[C@H](CC(=O)O)NC(=O)CCC(C(=O)O)N1CCCN2CCN(CCCN(CC(=O)O)CC2)CC1)C(=O)N[C@@H](Cc1c[nH]c2ccccc12)C(=O)N[C@@H](CO)C(=O)O (stereo partly shown) [copper-64 labelled] has a tissue uptake of 0.5 ± 0.2 %ID/g (female NMRI nude mice, muscle; 1 h p.i.).
The tissue ratio of N=C(N)NCCC[C@@H]1NC(=O)[C@H](CCCCNC(=O)CC[C@H](NC(=O)[C@H](CCCCNC(=O)c2ccc(NN)nc2)NC(=O)c2ccc(NN)nc2)C(=O)NCCCC[C@@H]2NC(=O)[C@@H](Cc3ccccc3)NC(=O)[C@H](CC(=O)O)NC(=O)CNC(=O)[C@H](CCCNC(=N)N)NC2=O)NC(=O)[C@@H](Cc2ccccc2)NC(=O)[C@H](CC(=O)O)NC(=O)CNC1=O [technetium-99m labelled] is reported as 2.43 ± 0.21 (female athymic nude mice; intravenous, 1 h, U-87 MG glioma xenograft; baseline: tumour over liver).
For N=C(N)NCCC[C@@H]1NC(=O)[C@H](CCCCNC(=O)CC[C@H](NC(=O)CCOCCOCCOCCOCCNC(=O)CN2CCN(CC(=O)O)CCN(CC(=O)O)CCN(CC(=O)O)CC2)C(=O)NCCCC[C@@H]2NC(=O)[C@@H](Cc3ccccc3)NC(=O)[C@H](CC(=O)O)NC(=O)CNC(=O)[C@H](CCCNC(=N)N)NC2=O)NC(=O)[C@@H](Cc2ccccc2)NC(=O)[C@H](CC(=O)O)NC(=O)CNC1=O [indium-111 labelled], the tissue uptake was 0.35 ± 0.05 %ID/g (female athymic nude mice, heart; intravenous, 3 µCi, 24 h, U-87 MG glioma xenograft).
For N=C(N)NCCC[C@@H]1NC(=O)[C@H](CCCCNC(=O)CCOCCOCCOCCOCCNC(=O)CC[C@H](NC(=O)CCOCCOCCOCCOCCNC(=O)[C@H](CCCCNC(=O)c2ccc(NN)nc2)NC(=O)c2ccc(NN)nc2)C(=O)NCCOCCOCCOCCOCCC(=O)NCCCC[C@@H]2NC(=O)[C@@H](Cc3ccccc3)NC(=O)[C@H](CC(=O)O)NC(=O)CNC(=O)[C@H](CCCNC(=N)N)NC2=O)NC(=O)[C@@H](Cc2ccccc2)NC(=O)[C@H](CC(=O)O)NC(=O)CNC1=O [technetium-99m labelled], the tissue ratio was 2.98 ± 0.18 (female athymic nude mice; intravenous, 1 h, U-87 MG glioma xenograft; baseline: tumour over liver).
For CSCC[C@H](NC(=O)[C@H](CC(C)C)NC(=O)[C@H](Cc1c[nH]cn1)NC(=O)CNC(=O)[C@@H](NC(=O)[C@H](C)NC(=O)[C@H](Cc1c[nH]c2ccccc12)NC(=O)[C@H](CCC(N)=O)NC(=O)CNC(=O)[C@H](CO)NC(=O)CNC(=O)CCCCCCCNC(=O)CCC(=O)Nc1ccc(CNC23CNCCNCC(N)(CNCCNC2)CNCCNC3)cc1)C(C)C)C(N)=O [copper-64 labelled], the tissue uptake was 0.348 ± 0.017 %ID/g (female SCID mice, PC-3 xenograft, lung; intravenous, 0.6 MBq, 4 h).
With N=C(N)NCCC[C@@H]1NC(=O)[C@H](CCCCNC(=O)CNC(=O)CNC(=O)CNC(=O)CC[C@H](NC(=O)CCOCCOCCOCCOCCNC(=O)CC[C@H](NC(=O)CN2CCN(CC(=O)O)CCN(CC(=O)O)CCN(CC(=O)O)CC2)C(=O)NCCOCCOCCOCCOCCC(=O)N[C@@H](CCC(=O)NCC(=O)NCC(=O)NCC(=O)NCCCC[C@@H]2NC(=O)[C@@H](Cc3ccccc3)NC(=O)[C@H](CC(=O)O)NC(=O)CNC(=O)[C@H](CCCNC(=N)N)NC2=O)C(=O)NCC(=O)NCC(=O)NCC(=O)NCCCC[C@@H]2NC(=O)[C@@H](Cc3ccccc3)NC(=O)[C@H](CC(=O)O)NC(=O)CNC(=O)[C@H](CCCNC(=N)N)NC2=O)C(=O)NCC(=O)NCC(=O)NCC(=O)NCCCC[C@@H]2NC(=O)[C@@H](Cc3ccccc3)NC(=O)[C@H](CC(=O)O)NC(=O)CNC(=O)[C@H](CCCNC(=N)N)NC2=O)NC(=O)[C@@H](Cc2ccccc2)NC(=O)[C@H](CC(=O)O)NC(=O)CNC1=O [indium-111 labelled] the tissue uptake was 1.98 ± 0.31 %ID/g (female athymic nude mice, kidney; intravenous, 3 µCi, 24 h, U-87 MG glioma xenograft).
N=C(N)NCCC[C@H](NC(=O)[C@H](CCCCN)NC(=O)[C@H](CCC(N)=O)NC(=O)CCOCCOCCOCCNC(=O)CN1CCN(CC(=O)O)CCN(CC(=O)O)CCN(CC(=O)O)CC1)C(=O)N[C@@H](CCCCN)C(=O)N[C@@H](CCCNC(=N)N)C(=O)N[C@@H](CCCCN)C(=O)N[C@@H](CCCCN)C(=O)N[C@@H](CO)C(=O)N[C@@H](CCCNC(=N)N)C(=O)N[C@@H](Cc1ccc(O)cc1)C(=O)N[C@@H](CCCCN)C(=O)N[C@@H](CO)C(=O)O [copper-64 labelled] has a tissue uptake of 0.39 ± 0.05 %ID/g (male C57BL/6 mice, B16-F10 tumour, testis; intravenous, 60 min).
For N=C(N)NCCC[C@@H]1NC(=O)[C@H](CCCCNC(=O)CNC(=O)CNC(=O)CNC(=O)CC[C@H](NC(=O)CNC(=O)CNC(=O)CNC(=O)[C@H](CCCCNC(=O)c2ccc(NN)nc2)NC(=O)c2ccc(NN)nc2)C(=O)NCC(=O)NCC(=O)NCC(=O)NCCCC[C@@H]2NC(=O)[C@@H](Cc3ccccc3)NC(=O)[C@H](CC(=O)O)NC(=O)CNC(=O)[C@H](CCCNC(=N)N)NC2=O)NC(=O)[C@@H](Cc2ccccc2)NC(=O)[C@H](CC(=O)O)NC(=O)CNC1=O [technetium-99m labelled], the tissue uptake was 2.61 ± 0.59 %ID/g (female athymic nude mice, liver; intravenous, 0.1 MBq, 1 h, U-87 MG glioma xenograft).
With N=C(N)NCCC[C@@H]1NC(=O)[C@H](CCCCNC(=O)CC[C@H](NC(=O)CCOCCOCCOCCOCCNC(=O)CC[C@H](NC(=O)CN2CCN(CC(=O)O)CCN(CC(=O)O)CCN(CC(=O)O)CC2)C(=O)NCCOCCOCCOCCOCCC(=O)N[C@@H](CCC(=O)NCCCC[C@@H]2NC(=O)[C@@H](Cc3ccccc3)NC(=O)[C@H](CC(=O)O)NC(=O)CNC(=O)[C@H](CCCNC(=N)N)NC2=O)C(=O)NCCCC[C@@H]2NC(=O)[C@@H](Cc3ccccc3)NC(=O)[C@H](CC(=O)O)NC(=O)CNC(=O)[C@H](CCCNC(=N)N)NC2=O)C(=O)NCCCC[C@@H]2NC(=O)[C@@H](Cc3ccccc3)NC(=O)[C@H](CC(=O)O)NC(=O)CNC(=O)[C@H](CCCNC(=N)N)NC2=O)NC(=O)[C@@H](Cc2ccccc2)NC(=O)[C@H](CC(=O)O)NC(=O)CNC1=O [indium-111 labelled] the tissue uptake was 0.12 ± 0.04 %ID/g (female athymic nude mice, brain; intravenous, 3 µCi, 1 h, U-87 MG glioma xenograft).
The tissue uptake of CSCC[C@H](NC(=O)[C@H](CC(C)C)NC(=O)[C@H](Cc1c[nH]cn1)NC(=O)CNC(=O)[C@@H](NC(=O)[C@H](C)NC(=O)[C@H](Cc1c[nH]c2ccccc12)NC(=O)[C@H](CCC(N)=O)NC(=O)CCCCCCCNC(=O)CCC(=O)Nc1ccc(CNC23CNCCNCC(N)(CNCCNC2)CNCCNC3)cc1)C(C)C)C(N)=O [copper-64 labelled] is reported as 4.68 ± 0.289 %ID/g (female SCID mice, PC-3 xenograft, liver; intravenous, 0.6 MBq, 24 h).
